# Results pooled from the literature.
# Protocols differ between the studies behind these lines. Several values in a cell are separate wells, animals, samples, runs or records. ± marks the error that the study gave.
# KCNT1: Potassium channel subfamily T member 1 (KCNT1, Homo sapiens, UniProt Q5JUK3)
# Sequence of UniProt Q5JUK3 (whole entry, looked up): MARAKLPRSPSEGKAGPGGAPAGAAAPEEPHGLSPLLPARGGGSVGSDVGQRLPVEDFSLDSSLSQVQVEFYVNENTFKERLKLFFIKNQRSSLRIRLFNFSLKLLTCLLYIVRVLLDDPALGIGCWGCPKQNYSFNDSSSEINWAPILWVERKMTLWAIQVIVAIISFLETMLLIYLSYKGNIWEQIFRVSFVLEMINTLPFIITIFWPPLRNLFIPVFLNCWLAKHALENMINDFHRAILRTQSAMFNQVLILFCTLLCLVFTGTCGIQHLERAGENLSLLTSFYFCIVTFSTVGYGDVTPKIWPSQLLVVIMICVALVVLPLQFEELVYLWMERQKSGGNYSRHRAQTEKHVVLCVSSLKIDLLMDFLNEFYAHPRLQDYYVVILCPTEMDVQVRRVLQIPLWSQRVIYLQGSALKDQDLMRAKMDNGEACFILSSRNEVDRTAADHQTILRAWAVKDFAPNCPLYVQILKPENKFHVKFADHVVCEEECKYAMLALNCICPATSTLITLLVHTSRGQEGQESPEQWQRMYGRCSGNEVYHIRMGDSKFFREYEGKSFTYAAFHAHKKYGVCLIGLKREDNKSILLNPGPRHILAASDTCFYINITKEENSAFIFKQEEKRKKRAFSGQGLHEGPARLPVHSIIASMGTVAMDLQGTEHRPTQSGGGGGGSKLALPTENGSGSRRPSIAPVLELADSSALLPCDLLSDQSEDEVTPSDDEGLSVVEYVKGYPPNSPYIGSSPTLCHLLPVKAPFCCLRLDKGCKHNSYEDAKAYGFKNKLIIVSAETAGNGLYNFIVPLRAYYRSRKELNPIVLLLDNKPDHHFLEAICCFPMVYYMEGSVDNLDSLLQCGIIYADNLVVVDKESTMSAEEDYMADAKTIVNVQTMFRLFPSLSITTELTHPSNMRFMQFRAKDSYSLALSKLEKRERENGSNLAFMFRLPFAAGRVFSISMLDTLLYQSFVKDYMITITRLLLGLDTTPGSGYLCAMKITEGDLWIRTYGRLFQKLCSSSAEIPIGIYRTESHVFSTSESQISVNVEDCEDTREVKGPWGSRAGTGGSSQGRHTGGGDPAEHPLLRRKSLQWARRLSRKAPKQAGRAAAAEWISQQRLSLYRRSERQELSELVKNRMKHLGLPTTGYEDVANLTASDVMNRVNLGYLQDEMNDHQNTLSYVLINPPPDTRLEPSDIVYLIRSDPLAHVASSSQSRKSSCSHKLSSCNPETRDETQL
# CFTR del508-508: Cystic fibrosis transmembrane conductance regulator (CFTR, Homo sapiens, UniProt P13569, del508-508)
# YAP1 WW2 domain: Transcriptional coactivator YAP1, WW2 domain (YAP1, Homo sapiens, UniProt P46937)
# T1: RNA hairpin, hairpin (Homo sapiens); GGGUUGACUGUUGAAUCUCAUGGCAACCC
# T2: DNA aptamer, truncated, engineered stem; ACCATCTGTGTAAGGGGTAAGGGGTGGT
# T3: miR-21 precursor (Homo sapiens); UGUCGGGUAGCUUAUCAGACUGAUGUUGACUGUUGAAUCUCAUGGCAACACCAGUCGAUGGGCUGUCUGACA
# Sequence of UniProt P12081 (whole entry, unmodified, looked up): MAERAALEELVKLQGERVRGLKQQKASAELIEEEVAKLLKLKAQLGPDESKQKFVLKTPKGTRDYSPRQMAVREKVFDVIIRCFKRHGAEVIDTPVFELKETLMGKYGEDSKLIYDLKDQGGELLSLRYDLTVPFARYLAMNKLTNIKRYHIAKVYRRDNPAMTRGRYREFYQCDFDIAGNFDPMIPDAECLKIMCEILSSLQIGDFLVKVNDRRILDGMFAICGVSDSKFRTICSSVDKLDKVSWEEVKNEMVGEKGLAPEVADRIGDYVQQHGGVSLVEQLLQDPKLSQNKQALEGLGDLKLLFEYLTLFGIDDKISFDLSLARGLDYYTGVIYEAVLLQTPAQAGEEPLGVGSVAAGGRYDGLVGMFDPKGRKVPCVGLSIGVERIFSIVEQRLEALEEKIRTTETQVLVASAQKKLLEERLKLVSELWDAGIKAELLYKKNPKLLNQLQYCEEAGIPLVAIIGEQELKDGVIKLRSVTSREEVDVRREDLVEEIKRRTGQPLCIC
# Sequence of UniProt Q01650 (whole entry, looked up): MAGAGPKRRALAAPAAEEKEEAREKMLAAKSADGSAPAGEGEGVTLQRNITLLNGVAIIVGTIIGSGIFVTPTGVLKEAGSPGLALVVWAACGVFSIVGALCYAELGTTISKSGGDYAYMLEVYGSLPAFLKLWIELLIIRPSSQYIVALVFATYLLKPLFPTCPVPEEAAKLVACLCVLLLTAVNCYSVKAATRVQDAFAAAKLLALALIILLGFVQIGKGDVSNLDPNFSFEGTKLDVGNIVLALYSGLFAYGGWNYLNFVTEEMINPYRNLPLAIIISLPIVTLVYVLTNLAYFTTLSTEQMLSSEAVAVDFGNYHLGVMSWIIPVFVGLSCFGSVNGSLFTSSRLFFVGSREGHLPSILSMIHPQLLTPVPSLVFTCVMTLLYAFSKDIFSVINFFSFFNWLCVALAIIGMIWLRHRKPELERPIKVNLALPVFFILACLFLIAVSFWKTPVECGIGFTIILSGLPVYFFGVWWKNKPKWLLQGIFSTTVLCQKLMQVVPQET
# Sequence of UniProt P03951 (whole entry, looked up): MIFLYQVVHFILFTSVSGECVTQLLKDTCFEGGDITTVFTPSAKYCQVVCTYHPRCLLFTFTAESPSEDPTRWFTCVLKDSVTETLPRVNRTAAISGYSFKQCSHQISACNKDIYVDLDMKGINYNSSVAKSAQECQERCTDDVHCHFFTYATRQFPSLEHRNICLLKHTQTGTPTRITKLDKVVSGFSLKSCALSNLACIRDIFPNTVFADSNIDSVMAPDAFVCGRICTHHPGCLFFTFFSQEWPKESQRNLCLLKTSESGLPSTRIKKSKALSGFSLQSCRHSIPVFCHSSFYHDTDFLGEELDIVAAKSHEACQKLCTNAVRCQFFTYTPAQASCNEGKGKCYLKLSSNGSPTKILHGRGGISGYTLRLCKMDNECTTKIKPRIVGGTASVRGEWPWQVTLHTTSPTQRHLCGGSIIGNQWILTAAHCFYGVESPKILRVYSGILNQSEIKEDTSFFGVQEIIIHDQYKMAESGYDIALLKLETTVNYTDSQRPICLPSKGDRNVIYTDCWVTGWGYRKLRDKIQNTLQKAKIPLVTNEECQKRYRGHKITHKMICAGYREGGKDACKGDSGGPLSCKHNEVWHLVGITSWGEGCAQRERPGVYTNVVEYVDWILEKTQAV
# Sequence of UniProt P50225 (whole entry, looked up): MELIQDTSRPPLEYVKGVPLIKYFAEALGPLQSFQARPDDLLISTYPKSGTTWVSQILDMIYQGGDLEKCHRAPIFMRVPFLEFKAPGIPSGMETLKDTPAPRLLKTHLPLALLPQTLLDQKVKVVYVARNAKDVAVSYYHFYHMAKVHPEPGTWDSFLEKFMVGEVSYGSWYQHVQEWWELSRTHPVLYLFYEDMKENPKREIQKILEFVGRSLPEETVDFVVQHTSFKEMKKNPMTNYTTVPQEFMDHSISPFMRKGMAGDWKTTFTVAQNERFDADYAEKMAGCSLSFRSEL
# Sequence of UniProt P12661 (whole entry, looked up): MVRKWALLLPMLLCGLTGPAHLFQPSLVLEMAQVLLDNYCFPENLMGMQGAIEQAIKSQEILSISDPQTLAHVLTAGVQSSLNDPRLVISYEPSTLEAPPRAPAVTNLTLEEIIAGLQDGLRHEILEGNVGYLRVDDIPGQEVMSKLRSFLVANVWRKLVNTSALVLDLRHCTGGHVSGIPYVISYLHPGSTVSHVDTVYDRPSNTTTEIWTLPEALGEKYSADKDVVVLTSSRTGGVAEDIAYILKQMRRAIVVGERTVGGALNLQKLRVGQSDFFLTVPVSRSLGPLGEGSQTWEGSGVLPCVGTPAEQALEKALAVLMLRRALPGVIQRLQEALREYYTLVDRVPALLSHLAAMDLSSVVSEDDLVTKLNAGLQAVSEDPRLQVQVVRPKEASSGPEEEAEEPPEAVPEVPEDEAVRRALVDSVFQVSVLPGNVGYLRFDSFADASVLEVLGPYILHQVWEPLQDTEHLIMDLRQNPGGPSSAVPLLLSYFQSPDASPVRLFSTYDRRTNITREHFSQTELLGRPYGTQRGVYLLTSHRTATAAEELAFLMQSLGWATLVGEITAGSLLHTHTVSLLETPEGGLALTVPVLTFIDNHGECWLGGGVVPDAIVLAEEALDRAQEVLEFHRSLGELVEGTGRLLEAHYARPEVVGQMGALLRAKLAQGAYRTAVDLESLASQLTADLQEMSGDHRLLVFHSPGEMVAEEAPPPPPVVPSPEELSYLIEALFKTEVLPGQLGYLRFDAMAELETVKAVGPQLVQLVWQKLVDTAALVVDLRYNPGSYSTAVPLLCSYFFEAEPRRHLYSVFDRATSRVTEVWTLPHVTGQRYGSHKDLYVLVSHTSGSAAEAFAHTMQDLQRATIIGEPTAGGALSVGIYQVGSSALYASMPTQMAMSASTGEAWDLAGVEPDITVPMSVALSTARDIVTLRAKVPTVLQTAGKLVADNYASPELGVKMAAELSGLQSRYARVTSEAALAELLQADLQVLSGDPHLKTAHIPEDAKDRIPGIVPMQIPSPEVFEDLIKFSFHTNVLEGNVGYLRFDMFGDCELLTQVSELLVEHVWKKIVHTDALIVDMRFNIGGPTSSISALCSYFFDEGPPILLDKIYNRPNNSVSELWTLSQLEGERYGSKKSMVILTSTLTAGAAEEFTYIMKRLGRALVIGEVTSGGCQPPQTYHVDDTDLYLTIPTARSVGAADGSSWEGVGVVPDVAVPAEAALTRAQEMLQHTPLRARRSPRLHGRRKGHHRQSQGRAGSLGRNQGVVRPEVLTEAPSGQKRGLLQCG
Molecule,target,test,test system,setting,how to read,quantity,value
CCOc1ccccc1S(=O)(=O)[C@H]1C[C@@H](c2nc(-c3ccc(F)cc3)no2)C1,KCNT1,"Tl+ flux, inhibitor",HEK293 expressing KCNT1,30 µM,,activity class,inactive
O=[N+]([O-])c1ccc(OS(=O)(=O)O)cc1,"SULT1A1 (Homo sapiens, UniProt P50225)",substrate,,"pH 6.2, 37 °C, value unreliable, with: PAP 0.1 mM",,apparent Km,75 ± 1 µM
Cc1cc(C)c2cc(C#N)c(NCCNC(=O)c3cnccn3)nc2c1,CFTR del508-508,"CFTR correction, corrector, iodide influx rate",FRT expressing YFP-H148Q/I152L,"up to 25 µM, 16-20 h, 37 °C, with: forskolin 20 µM, genistein 50 µM",,Vmax,174 µM/s
O=S(=O)(c1cccc2cccnc12)N1CC(c2nc(-c3ccc(F)cc3)no2)C1,KCNT1,"ion current, activator, automated patch clamp",CHO,30 µM,baseline: bepridil 60 µM,efficacy,100%
CC(=O)N[C@@H](CCC(=O)O)C(=O)N[C@@H](CC(N)=O)C(=O)N[C@@H](CCC(=O)O)C(=O)N[C@@H](CCC(N)=O)C(=O)N[C@H](C(=O)N[C@@H](CO)C(=O)N[C@@H](C)C(=O)N[C@H](C(=O)O)C(C)C)C(C)C,"Tyrosine-protein phosphatase non-receptor type 13, PDZ2 domain (PTPN13, Homo sapiens, UniProt Q12923)",binding,,,,koff,307 s⁻¹
OC(CNc1ccccc1)Cn1c2ccc(Br)cc2c2cc(Br)ccc21 (centres unmarked),"T1, RNA hairpin, hairpin (Homo sapiens)",differential scanning fluorimetry,,"30 µM, with: RNA 2 µM",higher = more stabilisation,change in melting temperature,-5.5 °C
CC(C)C[C@H](NC(=O)[C@@H](NC(=O)[C@@H](N)[C@@H](C)O)C(C)C)C(=O)N[C@@H](C)C(=O)N1CCC[C@H]1C(=O)N1CCC[C@H]1C(=O)N1CCC[C@H]1C(=O)N[C@@H](Cc1ccc(O)cc1)C(=O)N[C@@H](CCCNC(=N)N)C(=O)N[C@@H](Cc1c[nH]cn1)C(=O)N[C@@H](CCCNC(=N)N)C(=O)N[C@@H](CC(N)=O)C(=O)O,YAP1 WW2 domain,"binding, ITC",,"pH 7.0, 25 °C, WW2 domain",,ΔG,-5.41 ± 0.12 kcal/mol
N[C@@H](Cc1cnc[nH]1)C(=O)O,"HARS1 (Homo sapiens, UniProt P12081, Y330C)","thermal stability, DSF",,,,ΔTm,4.23 °C
O=S(=O)(O)CCS,"T2, DNA aptamer, truncated, engineered stem",electrochemical aptamer sensor,,1 mM,,binding,no binding
Oc1ccc(/C=C/c2ccc3ccccc3c2)cc1O,"Transthyretin, fibrils (TTR, Homo sapiens, UniProt P02766)","binding, fluorescence emission",,"1 µM, pH 3.0, with: 5 µM fibrils (monomer)",baseline: free compound,fluorescence increase,3.1 fold
CC(=O)C(C)=NO,integrin alphaM beta2 (human),"ligand binding, inhibitor, flow cytometry",human neutrophils,"concentration not given, 1 h, 37 °C, integrin clustering inhibitor, with: Alexa 488-labelled plasminogen","baseline: no inhibitor, lower means less binding",bound plasminogen fluorescence,232 ± 30 MFI
Nc1ccc(-c2nc([C@H]3CCc4cc(-c5cc(Cl)ccc5-n5cnnn5)cc(=O)n43)c(F)[nH]2)c(F)n1,"F11 (Homo sapiens, UniProt P03951)",factor XI coagulant activity,"human, blood","oral, 250 mg once daily, 14 days, fed",,maximum inhibition,92 ± 2.5%
O=c1c(O)c(-c2ccc(O)c(O)c2)oc2cc(O)cc(O)c12,"UGT1A6 (Homo sapiens, UniProt P19224)","enzyme activity, inhibitor",,50 µM,,remaining activity,23.1%
CO[C@H]1[C@@H](O)[C@H]([n+]2cn(C)c3c(=O)[nH]c(N)nc32)O[C@@H]1COP(=O)([O-])OP(=O)(O)OP(=O)(O)OC[C@H]1O[C@@H](n2cnc3c(=O)[nH]c(N)nc32)[C@H](O)[C@@H]1O,"NUDT16 (Homo sapiens, UniProt Q96DE0)","decapping, substrate",capped RNA transcribed by SP6 polymerase,"concentration not given, 30 min",,cap hydrolysis,8.72%
Nc1ncnc2c1ncn2[C@@H]1O[C@H](COP(=O)(O)OP(=O)(O)O)[C@@H](O)[C@H]1O,"ATP1A1 (Sus scrofa, UniProt P05024)","binding, radioligand binding",membrane-bound enzyme,with: NaCl 19 mM,,Bmax,1.17 ± 0.02 µM
N[C@@H](Cc1ccccc1)C(=O)O,"SLC7A5 (Homo sapiens, UniProt Q01650)",substrate,HEK293 expressing human LAT1,"200 µM, 3 min, with: [3H]-gabapentin preloaded",baseline: L-phenylalanine,relative efflux,100%
COc1ccc(/C=C\c2cc(OC)c(OC)c(OC)c2)cc1O,tubulin,"colchicine binding, [3H]colchicine binding",,"50 µM, 10 min, 37 °C, with: [3H]colchicine 5.0 µM",,inhibition,100 ± 0.04%
CC(C)C[C@H](NC(=O)[C@@H](NC(=O)[C@@H](N)[C@@H](C)O)C(C)C)C(=O)N1CCC[C@H]1C(=O)N1CCC[C@H]1C(=O)N1CCC[C@H]1C(=O)N1CCC[C@H]1C(=O)N[C@@H](Cc1ccc(O)cc1)C(=O)N[C@@H](C)C(=O)N[C@@H](Cc1c[nH]cn1)C(=O)N[C@@H](CCCNC(=N)N)C(=O)N[C@@H](CC(N)=O)C(=O)O,YAP1 WW2 domain,"binding, ITC",,"pH 7.0, 25 °C, WW2 domain",,ΔH,-8.61 ± 0.07 kcal/mol
COc1cc2c3c(cc4ccccc4c3c1OC)N(C)CC2,"T3, miR-21 precursor (Homo sapiens)",DSF,,"3 µM, NaCl 0.25 mM",,melting temperature shift,-15.7 °C
GSRPQRLLWQTAVRHITEQRFIHGH,"Calmodulin-1 (Calm1, Rattus norvegicus, UniProt P0DP29)","Ca2+ dissociation, stopped-flow quin-2 fluorescence",peptide,"2 µM, pH 7.4, 22 °C, with: Ca2+-calmodulin complex",,koff1,4.9 s⁻¹ and 4.93 s⁻¹
CCCCCCCC/C=C\CCCCCCCC(=O)OC[C@H](COP(=O)(O)OCC(O)CO)OC(=O)CCCCCCC/C=C\CCCCCCCC (some centres unmarked),"kcsA (Streptomyces lividans, UniProt P0A334)","channel opening, activator, contact bubble bilayer",POPC bilayer,"25 wt%, pH 4 inside, 7.5 outside, 100 mV",,open probability,17%
CC[C@H](C)[C@H](NC(=O)[C@@H]1CCCN1C(=O)[C@@H]1CCCN1C(=O)[C@@H]1CCCN1C(=O)[C@@H](NC(=O)[C@H](CC(N)=O)NC(=O)[C@@H](N)Cc1ccccc1)[C@@H](C)CC)C(=O)N[C@@H](Cc1ccc(O)cc1)C(=O)N[C@H](C(=O)N[C@@H](CO)C(=O)N[C@@H](CCCNC(=N)N)C(=O)N[C@@H](C)C(=O)O)[C@@H](C)O,"Transcriptional coactivator YAP1, WW1 domain (YAP1, Homo sapiens, UniProt P46937)","binding, ITC",,"pH 7.0, 25 °C, WW1 domain",,TΔS,-0.74 ± 0.4 kcal/mol
COc1ccc(Cl)cc1Nc1nc(-c2sc(NC(=O)c3ccccc3)nc2C)cs1,CFTR del508-508,"iodide influx, corrector, YFP halide quenching",FRT cells expressing YFP-H148Q/I152L,"16 to 20 h, 37 °C, genistein 50 µM, with: forskolin 20 µM",,Vmax,475 µM/s
IINFEKL,"ERAP1 (Homo sapiens, UniProt Q9NZ08, V737R)",substrate,peptide,"pH 8.0, 27 °C, mutant V737R, with: L-AMC, peptide activator 100 µM",,K1/2 of L-AMC,0.34 ± 0.14 mM
CC(C)C[C@H](NC(=O)[C@@H](NC(=O)[C@@H](N)[C@@H](C)O)C(C)C)C(=O)N1CCC[C@H]1C(=O)N1CCC[C@H]1C(=O)N1CCC[C@H]1C(=O)N[C@@H](C)C(=O)N[C@@H](Cc1ccc(O)cc1)C(=O)N[C@@H](CCCNC(=N)N)C(=O)N[C@@H](Cc1c[nH]cn1)C(=O)N[C@@H](CCCNC(=N)N)C(=O)N[C@@H](CC(N)=O)C(=O)O,YAP1 WW2 domain,"binding, ITC",,"pH 7.0, 25 °C, WW2 domain",,ΔH,-10.1 ± 0.32 kcal/mol
CCN(c1nc(N)c(C(=O)NC(=N)N)nc1Cl)C(C)C,"Degenerin mec-4 (mec-4, Caenorhabditis elegans, UniProt P24612, A713T)","ion current, two-electrode voltage clamp",Xenopus oocytes coexpressing MEC-2,"30 µM, -85 mV","baseline: uninjected oocytes, positive inhibition, negative potentiation",current change,5.53 µA
CCNc1ccccc1S(=O)(=O)N1CC(c2nc(-c3ccsc3)no2)C1,KCNT1,"Tl+ flux, inhibitor",HEK293 expressing KCNT1,30 µM,,activity class,inactive
Nc1ncnc2c1ncn2[C@@H]1O[C@H](COP(=O)(O)OP(=O)(O)OP(=O)(O)O)[C@@H](O)[C@H]1O,"HARS1 (Homo sapiens, UniProt P12081, Y454S)","thermal stability, DSF",,,,ΔTm,0.7 °C
CC1=C(/C=C/C(C)=C/C=C/C(C)=C/CO)C(C)(C)CCC1,"Retinol-binding protein 3 (RBP3, Bos taurus, UniProt P12661)",surface plasmon resonance,,"pH 7.4, 25 °C",,koff,0.08 ± 0.8 s⁻¹
IKPAKRMKFKTVCYLLVQLMHCRKMFKA,"Calmodulin-1 (Calm1, Rattus norvegicus, UniProt P0DP29, D21A/D57A)","Ca2+ dissociation, stopped-flow quin-2 fluorescence",peptide,"2 µM, pH 7.4, 22 °C, with: Ca2+-calmodulin complex",,koff1,5.17 s⁻¹ and 5.2 s⁻¹
CCOc1ccccc1S(=O)(=O)N1CC(c2cc(-c3ccc(F)cc3)on2)C1,KCNT1,"Tl+ flux, inhibitor",HEK293 expressing KCNT1,30 µM,,activity class,inactive
COc1ccc(C(=O)NCCNc2nc3cc(C)cc(C)c3cc2C#N)nc1,CFTR del508-508,"CFTR correction, corrector, iodide influx rate",FRT expressing YFP-H148Q/I152L,"up to 25 µM, 16-20 h, 37 °C, with: forskolin 20 µM, genistein 50 µM",,Vmax,88 µM/s

# Excerpt of the above:
Molecule,target,test,test system,setting,how to read,quantity,value
IINFEKL,"ERAP1 (Homo sapiens, UniProt Q9NZ08, V737R)",substrate,peptide,"pH 8.0, 27 °C, mutant V737R, with: L-AMC, peptide activator 100 µM",,K1/2 of L-AMC,0.34 ± 0.14 mM
O=S(=O)(c1cccc2cccnc12)N1CC(c2nc(-c3ccc(F)cc3)no2)C1,KCNT1,"ion current, activator, automated patch clamp",CHO,30 µM,baseline: bepridil 60 µM,efficacy,100%
CC[C@H](C)[C@H](NC(=O)[C@@H]1CCCN1C(=O)[C@@H]1CCCN1C(=O)[C@@H]1CCCN1C(=O)[C@@H](NC(=O)[C@H](CC(N)=O)NC(=O)[C@@H](N)Cc1ccccc1)[C@@H](C)CC)C(=O)N[C@@H](Cc1ccc(O)cc1)C(=O)N[C@H](C(=O)N[C@@H](CO)C(=O)N[C@@H](CCCNC(=N)N)C(=O)N[C@@H](C)C(=O)O)[C@@H](C)O,"Transcriptional coactivator YAP1, WW1 domain (YAP1, Homo sapiens, UniProt P46937)","binding, ITC",,"pH 7.0, 25 °C, WW1 domain",,TΔS,-0.74 ± 0.4 kcal/mol
